Published values from different studies.
A part holds a random share of what one study measured.

Series 1
Target: Centromere-binding protein 1, full length, N-terminal tag (CBF1, Saccharomyces cerevisiae, UniProt P17106, residues 1-351)
Sequence of UniProt P17106 (whole entry, looked up): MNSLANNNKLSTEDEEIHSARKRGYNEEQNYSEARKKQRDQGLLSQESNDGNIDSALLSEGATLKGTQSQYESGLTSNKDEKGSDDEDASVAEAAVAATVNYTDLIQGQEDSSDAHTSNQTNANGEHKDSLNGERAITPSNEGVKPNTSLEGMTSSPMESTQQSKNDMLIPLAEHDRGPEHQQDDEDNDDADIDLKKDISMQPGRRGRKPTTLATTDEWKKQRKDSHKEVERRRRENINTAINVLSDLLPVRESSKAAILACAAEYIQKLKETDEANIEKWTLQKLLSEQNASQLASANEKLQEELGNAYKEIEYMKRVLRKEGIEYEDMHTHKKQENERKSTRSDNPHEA
Technique: protein-binding microarray
Form: double-stranded DNA, one strand shown
Matrix: in vitro
Tested at: 0.8 µM
Notes: whole 60-bp probe, no competitor
Direction: higher = stronger binding
Measurement: fluorescence intensity
Constant ends, left off below: … GTCTTGATTCGCTTGACGCTGCTG
GAAATAGTCCGTTGTCGTGCGCATTCTTCTGTGTAG: 519 a.u.
CCTAACTACTATATAAATGATCAATAGCTTCGTACA: 519 a.u.
GAAATTAAATCGCACCACCAACCAATGACAGTCTAG: 522 a.u.
CTATTTATGCTAGTATACACCACGCATATGTCTTTC: 547 a.u.
CTAAATTTGGAACAGTTCGTGACTGTTTATTAATTC: 725 a.u.
TGTACGAAGCTATCACGTGTGTTTATAGTAGTTAGG: 6650 a.u.

Series 2
Target: Fragile X messenger ribonucleoprotein 1, C-terminal low-complexity region (Fmr1, Mus musculus, UniProt P35922)
Technique: RNA Bind-n-Seq
Form: RNA
Matrix: in vitro
Tested at: 200 nM
Notes: whole 134-nt RNA, ends assumed
With: 150 mM LiCl
Relative to: input library
Direction: higher = stronger binding
Measurement: log2 enrichment
Library: 7-deaza-guanosine replaces G
GGGAGUUCUACAGUCCGACGAUCUUGGACUAUGGAUCAGGUACUGUGCUCAGCAUCAGAAAAUGGGAUGACAAUGAACAGAGUAACAGGACUAUAUUUCUGAAAAAGGAUGAAUGGAAUUCUCGGGUGUCAAGG: -1.01
GGGAGUUCUACAGUCCGACGAUCCUGUGCUACACAUCGUAUGUACCGAAUCGGGGCCCCCCCGGCCCCCCCGGGGCCCCCCCGGGAAAGUAUUAUGUUACGCCGUUCGGAUCUUGGAAUUCUCGGGUGUCAAGG: -0.416
GGGAGUUCUACAGUCCGACGAUCAAGUCCUGUGCUACACAUCGUAUGUACCGAAUCGGAAAGGAAAAAAAGGUUUUUGGAAAGUAUUAUGUUACGCCGUUCGGAUCUGCACUUUGGAAUUCUCGGGUGUCAAGG: -2.3
GGGAGUUCUACAGUCCGACGAUCACCAUGCAGGUGGGGAUCUUUGGGAAGUGGGGCAAGGGGGGGAUAGGGAGGGGGGUAACACUUUGGGAACAGGUGGUCCCAGGUCGUUUCUGGAAUUCUCGGGUGUCAAGG: 1.18

Series 3
Target: Sal-like protein 4, full length isoform B (SALL4, Homo sapiens, UniProt Q9UJQ4-2, residues 1-616)
Technique: universal PBM
Form: double-stranded DNA, one strand shown
Matrix: in vitro
Tested at: not given
Notes: 8-mer, flanks averaged, mean of replicates
Direction: higher = stronger binding
Measurement: E-score
ATGGACCG: -0.142
AACTGGAT: 0.00181
CTCGGGGC: -0.337
CCACTGAA: 0.0227
GTTTCAAA: 0.152

Further values, each from its own experiment
PhoQ, residues 284 288 289 292 302 303 TLASMF
fold induction (PhoP, residues 12 14 15 18 19 NIMAP (Escherichia coli, UniProt P23836); Sort-seq, measured: YFP reporter; E. coli; PhoQ-PhoP variant library, with: 10 µM Mg2+; relative to: high Mg2+ state, higher = stronger signaling): 1.73

For quick reference, copied from above (further values, each from its own experiment):
PhoQ, residues 284 288 289 292 302 303 TLASMF
fold induction (PhoP, residues 12 14 15 18 19 NIMAP (Escherichia coli, UniProt P23836); Sort-seq, measured: YFP reporter; E. coli; PhoQ-PhoP variant library, with: 10 µM Mg2+; relative to: high Mg2+ state, higher = stronger signaling): 1.73
